# Measurements collected from several papers.
# A part holds a random share of what one study measured.

# Series 1
# Target: Histone acetyltransferase KAT6A, both winged helices, GST fusion (KAT6A, Homo sapiens, UniProt Q92794, residues 1-181)
# Method: protein binding microarray
# Molecule type: double-stranded DNA, one strand shown
# Matrix: in vitro
# Tested at: not given
# Notes: 8-mer, flanks averaged, mean of 2 arrays, mostly near background
# Reference: not given
# Reading: higher = stronger binding
# Construct (chain): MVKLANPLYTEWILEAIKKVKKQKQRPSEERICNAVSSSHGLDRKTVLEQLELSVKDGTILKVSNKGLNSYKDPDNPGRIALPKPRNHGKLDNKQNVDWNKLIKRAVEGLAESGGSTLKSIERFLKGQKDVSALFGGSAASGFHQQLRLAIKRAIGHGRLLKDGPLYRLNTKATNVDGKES
Oligonucleotide,E-score
CACGGAGG,0.113
AATGCGTG,0.0108
TCTCATCA,-0.226
CCGAGATC,-0.0375
ACCCACGC,0.0828
ATACAGTC,-0.137
GGCTAGAC,-0.031
AAGCTCCA,-0.0995
AACTGTCA,-0.00975
CAGTGGCA,-0.217
AAAGTTAA,-0.0689
AAGCACAA,-0.201
CTGAGAAA,-0.103
ATGGAAAC,-0.0752
ACTGTCTC,-0.122
ACCGCAAA,0.19
CCACCTGG,-0.293
GCAACAGC,0.0636
AGATGTTC,-0.153
CCGTGCAA,0.135
AATATTCT,-0.0772
GTCAATAA,-0.05
ATAATGCC,0.0304
GAAACAAA,-0.0673
GACCATCA,-0.0781

# Series 2
# Target: Ras GTPase-activating protein-binding protein 1, full length (G3BP1, Homo sapiens, UniProt Q13283)
# Chain of UniProt Q13283 (whole entry, looked up): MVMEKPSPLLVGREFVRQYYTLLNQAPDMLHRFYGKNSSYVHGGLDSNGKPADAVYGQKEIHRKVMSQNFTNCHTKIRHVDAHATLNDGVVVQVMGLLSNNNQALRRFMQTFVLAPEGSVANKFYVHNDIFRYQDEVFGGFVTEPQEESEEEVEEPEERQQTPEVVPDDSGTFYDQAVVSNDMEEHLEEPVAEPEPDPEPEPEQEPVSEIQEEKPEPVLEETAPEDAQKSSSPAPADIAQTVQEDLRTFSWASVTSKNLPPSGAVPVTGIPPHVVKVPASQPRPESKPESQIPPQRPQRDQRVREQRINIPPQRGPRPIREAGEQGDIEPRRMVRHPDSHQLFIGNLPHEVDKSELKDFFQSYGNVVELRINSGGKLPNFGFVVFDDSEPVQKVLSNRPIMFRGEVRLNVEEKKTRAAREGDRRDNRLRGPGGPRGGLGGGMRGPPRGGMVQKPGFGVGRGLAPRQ
# Method: RNA Bind-n-Seq
# Molecule type: RNA
# Matrix: in vitro
# Tested at: 200 nM
# Notes: whole 134-nt RNA, ends assumed
# With: 150 mM LiCl
# Reference: input library
# Reading: higher = stronger binding
# All molecules: 7-deaza-guanosine replaces G
# Shared flanks, not repeated: GGGAGUUCUACAGUCCGACGAUC … UGGAAUUCUCGGGUGUCAAGG
Oligonucleotide,log2 enrichment
CUCAAGUCCUGUGCUACACAUCGUAUGUACCGAAUCGGUGGAAAGGAAAAAGGAAAGUAUUAUGUUACGCCGUUCGGAUCUGCACUUCCA,-0.274
GUCCUGUGCUACACAUCGUAUGUACCGAAUCGGGUGGGUUUUUUUGGGUUUUUUUGGGAAAGUAUUAUGUUACGCCGUUCGGAUCUGCAC,0.26
GUCCUGUGCUACACAUCGUAUGUACCGAAUCGGGUUUUUGGGUUUUUGGUUUUUGGGGAAAGUAUUAUGUUACGCCGUUCGGAUCUGCAC,-0.83
GUCCUGUGCUACACAUCGUAUGUACCGAAUCGGGUUUUUGGGGUUUUUGGUUUUUGGGAAAGUAUUAUGUUACGCCGUUCGGAUCUGCAC,-0.747
ACCAUGCAGGUGGGCAUCUUUGGGAAGUGGGGCAAGGGGGGGAUAGGGAGGGGGGUAACACUUUGGGAGCAGGUGGUCCCAGGUCGUUUC,0.0812
UCCCAAUGCUCGGAGGAAGCCCAAGGGCAGCCCUCGUGUACCUGAUGCCAAGAAGCCUAAACCCAAGAAAGUAGCUCCCCUGAAAAUCAA,1.43
GCAGGAAGUAAAAACAAAUGGAAAUGCUUCGGAUAGUGGCAGGGGUGGGGGUUGCUAAGGAAAGGGUGGGAUGGGAGUGGGUAUAGAGUU,0.598
CCUGUGCUACACAUCGUAUGUACCGAAUCGGGGUUUGGGGAAAAAGGGGUUUUUUUGGGGAAAGUAUUAUGUUACGCCGUUCGGAUCUGC,0.348

# Series 3
# Target: Interferon regulatory factor 5, full length, phosphomimetic (IRF5, Homo sapiens, UniProt Q13568-2, residues 1-514, K96S/S451D/S453D/S456D/S462D)
# Method: protein-binding microarray
# Molecule type: double-stranded DNA, one strand shown
# Matrix: in vitro
# Tested at: 250 nM
# Notes: 60-bp whole probe
# With: salmon DNA 0.4 mg/ml
# Reference: random background probes
# Reading: higher = stronger binding
# Shared flanks, not repeated: GCCTAGCAC … GTCTTGATTCGCTTGACGCTGCTG
Oligonucleotide,log fluorescence [z-score]
GACGATCTCCTTCTCCTGACGTGCTAG,-0.00189
GACGGTTTGGGTATCGGGACGTGCTAG,0.692
GACGGTCTCCTACTGCTGAGGTGCTAG,-0.277
TTAGGTATCGGGTTTCTGTTAGTGCTA,5.07
GACGAACTGAGTATCGAGACGTGCTAG,1.97
CTCTATTGCTTTCTCTTTCAGTGCTAG,4.82
TTAGGTTTCGGGTTTCCGTTAGTGCTA,8.53
TTAGATTTCAGACTGGATTCGTGCTAG,0.348
GACGGTATCGGACTGGGGGCGTGCTAG,1.62
GACGGTATCGGTTCCGGGACGTGCTAG,6.01
GACGCTTTCAGTCTCGAGACGTGCTAG,3.93
ATAGATATCGGGTATCGATTAGTGCTA,6.04
TCAGATATCAGTTTCGATTAGTGCTAG,9.97
TAACCTTGAACTTTGGCCTCGTGCTAG,0.11
GACGATATGGGGTTTCGAGACGTGCTA,1.45
TTAGGACTGGACTTTCGGTTGGTGCTA,9.06
GAGGGTATCGGGTATCGGGACGTGCTA,2.37
GACGGGTTCGACTATCGGGACGTGCTA,1.08
TTCTTTATGTACTCTCTCCATGTGCTA,0.692

# Series 4
# Target: RING finger protein unkempt homolog, zinc fingers 1-6, SBP tag (UNK, Homo sapiens, UniProt Q9C0B0, residues 30-357)
# Chain of UniProt Q9C0B0 (30-357, looked up): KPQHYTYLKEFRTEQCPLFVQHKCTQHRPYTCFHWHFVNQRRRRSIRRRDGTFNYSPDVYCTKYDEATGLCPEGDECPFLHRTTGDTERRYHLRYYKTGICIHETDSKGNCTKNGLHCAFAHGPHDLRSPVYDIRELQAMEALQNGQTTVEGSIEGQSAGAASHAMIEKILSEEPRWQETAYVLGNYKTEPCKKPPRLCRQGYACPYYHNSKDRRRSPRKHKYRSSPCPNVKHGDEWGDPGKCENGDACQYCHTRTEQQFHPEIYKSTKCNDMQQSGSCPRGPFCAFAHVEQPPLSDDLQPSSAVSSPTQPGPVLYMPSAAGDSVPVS
# Method: RNA Bind-n-Seq
# Molecule type: RNA
# Matrix: in vitro
# Tested at: 100 nM
# Notes: RNA with constant flanks, vertebrate orthologous sites, ends assumed
# Reference: input RNA pool
# Reading: higher = stronger binding
# Shared flanks, not repeated: GGGAGUUCUACAGUCCGACGAUC … CAACAGAGGAUUGAGCAUCA
Oligonucleotide,bound/input enrichment [ratio]
AAAAUGCCUUCUGUUCCAUUAGGAAAAACAAAUGUAGUUCCCCCCAGUCUAAAACUUUAAUAGCUAUUUUUGAAAUGAAAAUGUUUAGAUUUUGUAAAUCAGCUGUUUCCACUACACAAC,0.746
CUGUAUGGCCCUCGCAGAGUUGAAAUAAUGGAAGAGGAAAGUGAAUAGUAAUCUUCAUUCUAGUAUUUAUGCUUAGGUGUGAAAUAAAUGUUAUUUGUUGAUCAUUUCUAUAACCCAGAG,0.371
ACUGCUGUUAAUGCACUGUUUCAGCCCUUGUAUGAGUUUAGUGUAAUCUAGGAAAUUUUAUAGUUUUAUUUUAAUGAAUACCGGAUUGAUGCACAGUAGUGGGAAGUUCAUUGUCUUUUA,1.29
UUUUUUCUUUUUUUUUUUAAUUUAAUUUUUCCUUUUGGGGGUAAAGUUUGCUCUACCAAAUAGUGAUUGUAACAAAUUGAUCUGUUUUGGAUGUUGCUAUAGUGACAUGCAGUUAUAUAU,1.6
ACGCAUUUUGCAACUUGGAUGUGGUCUGCACAGGAAGCUGCUGGCCCCUCCACAACAACACAGAAAAUGUUUGUCUUUUUUUUUUGAGGAUGCUAAAACUGAAUUGAAUUUACUAAAAAU,0.301
GUUGUGACCCAUUUAACAUACACAAAAAACUAGCCAAAAAAAAUUUGCAUGUAAUUGACUUAGAUGAUGCCACUUUUCUGAGUGCAAAAUUUGGAAGACAACUUGUACCUGGUUGGAAGC,1.42
UUGUGGUUUCUAUUGUUUUCUCUUUAAUAUUUCAUGUACUAAACCUUAGAUAUACCAGUCUAUAGUUUUUGAUGGAAUUGGUAUAUUGACAGUUCUCAGCCAAGGAAUUGUUUCUCUGGA,0.504
GCAUGCACAUGCCGCUGUCACCAAAAGCAAACACGGUCUUCAGAAUCUCCAAUAGCAUUUUUAGUAUUCUCUCCCUCUUUCCCUUCUGUUUCCCUAAUGCUUUAAAUGAUUAGAAGUCCU,4.19

# Excerpt of the above (series 3):
Oligonucleotide,log fluorescence [z-score]
GACGCTTTCAGTCTCGAGACGTGCTAG,3.93
TTAGGTATCGGGTTTCTGTTAGTGCTA,5.07
TCAGATATCAGTTTCGATTAGTGCTAG,9.97
CTCTATTGCTTTCTCTTTCAGTGCTAG,4.82
GACGGGTTCGACTATCGGGACGTGCTA,1.08
TTAGGTTTCGGGTTTCCGTTAGTGCTA,8.53
TTAGATTTCAGACTGGATTCGTGCTAG,0.348
TAACCTTGAACTTTGGCCTCGTGCTAG,0.11
